# Experimental data pooled from the literature.
# Several values in a cell are separate wells, animals, samples, runs or records. ± marks the error that the study gave.
Structure (SMILES),test system,setting,plasma concentration
Cc1noc(C)c1Cn1cc(N2C(=O)CN(Cc3cccc(O[C@@H]4O[C@H](C(=O)O)[C@@H](O)[C@H](O)[C@H]4O)c3)C2=O)cn1,"rat Sprague-Dawley male, plasma","oral, 100 mg/kg of parent drug, 2 h",74.1 ± 29.3 ng/mL
O=C(NS(=O)(=O)c1cccs1)c1cc2ccccc2n1Cc1ccc(Br)c2ccccc12,"Sprague-Dawley rat, male, plasma","oral, 2 mg/kg, 24 h",2.83 ng/mL
CCCC[C@H](OC(C)=O)c1ccccc1C(=O)O,"beagle dog, both sexes, whole blood","intravenous, 1.5 mg/kg, 1 min, day 7",5970 ± 924 ng/mL
Cc1noc(C)c1Cn1cc(N2C(=O)CN(Cc3cccc(OS(=O)(=O)O)c3)C2=O)cn1,"rat Sprague-Dawley male, plasma","intravenous, 1 mg/kg of parent drug, 4 h",268 ng/mL
Cc1ncsc1-c1ccc(CNC(=O)[C@@H]2C[C@@H](O)CN2C(=O)[C@@H](NC(=O)COCC(C)(COCCOCCOCCNC(=O)C[C@@H]2N=C(c3ccc(Cl)cc3)c3c(sc(C)c3C)-n3c(C)nnc32)COCCOCCOCCNC(=O)C[C@@H]2N=C(c3ccc(Cl)cc3)c3c(sc(C)c3C)-n3c(C)nnc32)C(C)(C)C)cc1,"male C57BL/6 mice, plasma","subcutaneous, 5 mg/kg, 30 min, 20-fold diluted sample",1370 ng/mL and 1910 ng/mL
COc1ccc2c(c1)CN(C(=O)CCN1CCC(Cc3ccccc3)CC1)CCS2,"paroxysmal atrial fibrillation patients, plasma","oral, 540 mg, 60 min",353 ± 73.2 ng/mL
CC(=O)N[C@H](CC(=O)O)C(=O)N[C@H](Cc1c[nH]c2ccccc12)C(=O)N[C@H](Cc1ccccc1)C(=O)N[C@H](CCCCN)C(=O)N[C@H](C)C(=O)N[C@H](Cc1ccccc1)C(=O)N[C@H](Cc1ccc(O)cc1)C(=O)N[C@H](CC(=O)O)C(=O)N[C@H](CCCCN)C(=O)N[C@@H](C(=O)N[C@H](C)C(=O)N[C@H](CCC(=O)O)C(=O)N[C@H](CCCCN)C(=O)N[C@H](Cc1ccccc1)C(=O)N[C@H](CCCCN)C(=O)N[C@H](CCC(=O)O)C(=O)N[C@H](C)C(=O)N[C@H](Cc1ccccc1)C(N)=O)C(C)C,"human, plasma","oral, 500 mg daily, 8 h post-dose, day 13",16.1 ng/mL
Cc1nn(-c2nc3c(F)cc(F)cc3s2)c(O)c1C(c1ccc(C(F)(F)F)cc1)c1c(C)nn(-c2nc3c(F)cc(F)cc3s2)c1O,ICR mouse,"intravenous, 5 mg/kg, 0.25 h",8140 ng/mL and 12700 ng/mL and 16800 ng/mL
Cc1cccc(Cn2ncc3c4cc(F)c(CN(C)C)cc4n(C)c3c2=O)n1,"Dutch-belted rabbit, plasma","intravitreal, 100 µM vitreous, 2.00 days",not detected
C=C[C@]1(C)C[C@@H](OC(=O)CSc2ccc(NC(=O)c3ccco3)cc2)[C@]2(C)[C@H](C)CC[C@]3(CCC(=O)[C@H]32)[C@@H](C)[C@@H]1O,"Mycoplasma gallisepticum-infected chickens, plasma","intramuscular, 5 mg/kg, 0.5 h",666 ng/mL and 499 ng/mL and 557 ng/mL and 658 ng/mL and 751 ng/mL and 624 ng/mL and 640 ng/mL and 573 ng/mL

# Repeated from above:
Structure (SMILES),test system,setting,plasma concentration
Cc1noc(C)c1Cn1cc(N2C(=O)CN(Cc3cccc(O[C@@H]4O[C@H](C(=O)O)[C@@H](O)[C@H](O)[C@H]4O)c3)C2=O)cn1,"rat Sprague-Dawley male, plasma","oral, 100 mg/kg of parent drug, 2 h",74.1 ± 29.3 ng/mL
